# Measured values gathered from unrelated publications.
# Lines come from different studies, so protocols differ. ± gives the spread as reported.
Structure (SMILES),tested on,test,system,setting,how to read,quantity,value
CCc1cc(C(=O)NC)c2nccc(N3CCc4c(cc(Cn5ccnc5)cc4-c4cn(C)nc4C(F)(F)F)C3=O)c2c1,,,"Sprague Dawley rat, male, plasma","oral, 100 mg/kg twice daily, day 1",,t1/2,1.7 h
Cc1cc(-c2nnc(N)nc2-c2ccc(F)cc2)cc(Cl)n1,,,"human patients, plasma","oral, 200 mg capsule once daily, multiple doses, arithmetic mean",,terminal half-life,12 h
C[C@@H]1COCCN1c1cc(C2([S@](C)(=N)=O)CC2)nc(-c2cc[nH]c3nccc2-3)n1,,,Japanese advanced solid tumour patients,"oral, 240 mg twice daily, any grade",,Rash incidence,0%
CN(CCCNC(=O)c1cc(NC(=O)c2cc(NC(=O)c3cc(NC(=O)c4nc(NC(=O)C[C@H](CNC(=O)c5cc(NC(=O)c6cc(NC(=O)c7cc(NC(=O)c8nccn8C)cn7C)cn6C)cn5C)NC(=O)c5ccccc5)cn4C)cn3C)cn2C)cn1C)CCCNC(=S)Nc1ccc(-c2c3ccc(=O)cc-3oc3cc(O)ccc23)c(C(=O)O)c1,,dynamic light scattering,0.1% DMSO in PBS,25 °C,,critical aggregation concentration,1 µM
CO[C@@H]1[C@H](O)[C@@H](CO)O[C@H]1n1c([N+](=O)[O-])nc2c(=O)[nH]c(N)nc21,,,citrate phosphate buffer,"0.5 mM, pH 2.15, 37 °C",,depurination half-life,11 h
CC(=O)N[C@@H](CC(N)=O)C(=O)N[C@@H](CC(N)=O)C(=O)N[C@@H](CC(C)C)C(=O)N[C@H]1CSSC[C@@H](C(=O)N[C@H](C(N)=O)[C@@H](C)O)NC(=O)[C@H](CCCNC(=N)N)NC(=O)[C@H](Cc2c[nH]cn2)NC(=O)[C@H](C)NC(=O)CNC(=O)[C@H](Cc2c[nH]c3ccccc23)NC(=O)[C@H](CC(=O)O)NC(=O)[C@H](CCC(N)=O)NC(=O)[C@H](Cc2c[nH]c3ccccc23)NC(=O)[C@H](C(C)C)NC1=O,,"RP-HPLC, C18",28% acetonitrile isocratic,pH 7.4,,retention factor,1.047 ± 0.01
C=CCN1CC(=O)N2[C@@H](Cc3ccc(O)cc3F)C(=O)N(Cc3cccc(N4CC(N5CCN(CC)CC5)C4)n3)C[C@@H]2N1C(=O)NCc1ccccc1,,,advanced solid tumour patients,"oral, 20 mg twice daily, grade ≥3, dose-escalation",,treatment-related nausea,0%
O=c1c(-c2ccc(O[C@@H]3O[C@H](CO)[C@@H](O)[C@H](O)[C@H]3O)cc2)coc2cc(O)cc(O)c12,THP-1,pyroptotic LDH release,,"2 µM, 40 min, together with: LPS then nigericin",,inhibition,30.1%
O=C(O)CCC(=O)O.[2H]C([2H])([2H])Oc1cc(C)c2[nH]ccc2c1CN1CC[C@@H](C2CC2)C[C@H]1c1ccc(C(=O)O)cc1,,multiple ascending dose,healthy Chinese subjects,300 mg once daily,,subjects with muscle pain TEAE,0%
O=C(N[C@H](Cc1c[nH]c2ccccc12)C(=O)Nc1ccncc1)c1ccc(N2CCN(c3ccc(F)c(F)c3)CC2)cc1F,,,"Swiss Webster mouse, female, lung","oral, 50 mg/kg, 2 h, 20% HPβCD vehicle",,concentration,1510 nM
COc1ccnc(C(=O)NC(CO)C(=O)O)c1O (racemic),,aerobic dark soil incubation,clay loam soil,"20 °C, modelling endpoint",,DT50,17.4 days
CCC[C@H]1CC[C@H](c2ccc(C#N)cc2)CC1,,,"Sprague-Dawley rat, female, fetus","1000 ng/mL in perfusate, 50 (unit not given), middle dose, mixture of 21 LCMs",,fetal accumulation,1.55 ± 0.88 ng/g
N#CCNC(=O)c1ccc(-c2ccnc(Nc3ccc(N4CCOCC4)cc3)n2)cc1,,,"healthy volunteers, plasma","oral, dose not given, together with: ritonavir multiple-dose",relative to: with ritonavir over alone,Cmax geometric mean ratio,123%
Cl.[2H]C([2H])([2H])CC(=O)c1cnc(NC(=O)C2CC2)cc1Nc1cccc(-c2ncn(C([2H])([2H])[2H])n2)c1OC,,geometric mean,human,"50 mg single dose, fasted, liquid",,CL/F,12.1 L/h
CC[C@H](C)CCCCC(=O)N[C@@H](CCN)C(=O)N[C@H](C(=O)N[C@@H](CCN)C(=O)N[C@H]1CCNC(=O)[C@H]([C@@H](C)O)NC(=O)[C@H](CCN)NC(=O)[C@H](CCN)NC(=O)[C@H](CC(C)C)NC(=O)[C@@H](Cc2ccccc2)NC(=O)[C@H](CCN)NC1=O)[C@@H](C)O,,,"human, normal renal function, urine","intravenous, 0.75 mg/kg, 0-24 h, arithmetic mean",,urinary excretion,1.67%
O=C(Nc1nc2cccc(-c3ccc(CN4CCS(=O)(=O)CC4)cc3)n2n1)C1CC1,,measured: arthropod sting allergy,rheumatoid arthritis patients,"oral, 30 mg once daily, 4 weeks, any relatedness",,treatment-emergent adverse events,0%
CN(C(=O)n1cnc(-c2cccnc2)c1)[C@H]1CC[C@H](O)CC1,,,"Wistar rat, midbrain","oral, 10 mg/kg/day of BIA 10-2474, 24 h, repeated 5 days",,concentration,19.9 ± 1.6 ng/g
Cc1nn(CC(F)(F)F)cc1Nc1ncc(C2CC2)c(NCCCNC(=O)C2CCC2)n1,,PAMPA,PBS,"5 h, pH 7.4",,effective permeability,5.08 ×10⁻⁶ cm/s
O=C(O)Cc1ccc(Cl)cc1,THP-1,pyroptotic LDH release,,"2 µM, 40 min, together with: LPS then nigericin",,inhibition,10.4%
CCN1CCN(Cc2ccc(NC(=O)c3ccc(C)c(NC(=O)c4cncc(-c5cccs5)c4)c3)cc2C(F)(F)F)CC1,,,"C57BL/6 mice, epithelial lining fluid","intraperitoneal, 30 mg/kg",,mean residence time,3.39 h

# A few entries again:
Structure (SMILES),tested on,test,system,setting,how to read,quantity,value
Cc1cc(-c2nnc(N)nc2-c2ccc(F)cc2)cc(Cl)n1,,,"human patients, plasma","oral, 200 mg capsule once daily, multiple doses, arithmetic mean",,terminal half-life,12 h
C=CCN1CC(=O)N2[C@@H](Cc3ccc(O)cc3F)C(=O)N(Cc3cccc(N4CC(N5CCN(CC)CC5)C4)n3)C[C@@H]2N1C(=O)NCc1ccccc1,,,advanced solid tumour patients,"oral, 20 mg twice daily, grade ≥3, dose-escalation",,treatment-related nausea,0%
Cl.[2H]C([2H])([2H])CC(=O)c1cnc(NC(=O)C2CC2)cc1Nc1cccc(-c2ncn(C([2H])([2H])[2H])n2)c1OC,,geometric mean,human,"50 mg single dose, fasted, liquid",,CL/F,12.1 L/h
